Measurements of several laboratories.
Every numbered part comes from another study and shows a few of its results, in no order. Changes are numbered by the printed parent chain.

Sample 1
Target: Interferon regulatory factor 7, full length, phosphomimetic (IRF7, Homo sapiens, UniProt Q92985, residues 1-503, S471D/S472D/S475D/S476D/S477D/S483D/S484D/S487D)
UniProt Q92985, sequence (whole entry, unmodified, looked up): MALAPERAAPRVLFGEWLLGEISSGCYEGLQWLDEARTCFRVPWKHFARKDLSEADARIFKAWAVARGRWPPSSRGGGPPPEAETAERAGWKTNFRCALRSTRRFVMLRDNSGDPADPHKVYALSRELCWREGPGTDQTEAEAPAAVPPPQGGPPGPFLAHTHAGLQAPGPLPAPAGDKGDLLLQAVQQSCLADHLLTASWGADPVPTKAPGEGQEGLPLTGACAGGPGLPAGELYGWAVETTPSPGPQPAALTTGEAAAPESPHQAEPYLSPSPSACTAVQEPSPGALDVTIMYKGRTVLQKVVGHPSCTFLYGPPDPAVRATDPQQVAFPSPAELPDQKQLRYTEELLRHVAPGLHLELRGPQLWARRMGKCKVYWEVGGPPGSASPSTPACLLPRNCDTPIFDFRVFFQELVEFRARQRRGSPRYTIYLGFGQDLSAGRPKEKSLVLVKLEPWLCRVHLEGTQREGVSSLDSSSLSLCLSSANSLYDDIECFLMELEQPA
Method: protein-binding microarray
Molecule type: double-stranded DNA, one strand shown
Matrix: in vitro
Concentration: 2200 nM top
Setting: 60-bp whole probe
With: salmon DNA 0.4 mg/ml
Reference: random background probes
Reading: higher = stronger binding
Constant ends, left off below: GCCTAGCAC … GTCTTGATTCGCTTGACGCTGCTG
`TTAGGTATGGGGTTTCGGTTAGTGCTA` — result for “fitted relative affinity”: 3.42 z-score.
For `TTAGGTTTCGGTCTCAGTTAGTGCTAG`, “fitted relative affinity” read 5.91 z-score.
For `GACGGTTTCGTGACTGGGGACGTGCTA`, “fitted relative affinity” read 2.37 z-score.
For `TTAGATTTCGGGTGTCGATTAGTGCTA`, “fitted relative affinity” read 2.02 z-score.
`TTAGGTATTGGTATCGGTTAGTGCTAG` — result for “fitted relative affinity”: 0.783 z-score.
`GACGATTTCGAGTATCGAGACGTGCTA` — result for “fitted relative affinity”: 1.55 z-score.

Sample 2
Target: Ras GTPase-activating protein-binding protein 1, RRM domain (G3BP1, Homo sapiens, UniProt Q13283)
UniProt Q13283, sequence (whole entry, looked up): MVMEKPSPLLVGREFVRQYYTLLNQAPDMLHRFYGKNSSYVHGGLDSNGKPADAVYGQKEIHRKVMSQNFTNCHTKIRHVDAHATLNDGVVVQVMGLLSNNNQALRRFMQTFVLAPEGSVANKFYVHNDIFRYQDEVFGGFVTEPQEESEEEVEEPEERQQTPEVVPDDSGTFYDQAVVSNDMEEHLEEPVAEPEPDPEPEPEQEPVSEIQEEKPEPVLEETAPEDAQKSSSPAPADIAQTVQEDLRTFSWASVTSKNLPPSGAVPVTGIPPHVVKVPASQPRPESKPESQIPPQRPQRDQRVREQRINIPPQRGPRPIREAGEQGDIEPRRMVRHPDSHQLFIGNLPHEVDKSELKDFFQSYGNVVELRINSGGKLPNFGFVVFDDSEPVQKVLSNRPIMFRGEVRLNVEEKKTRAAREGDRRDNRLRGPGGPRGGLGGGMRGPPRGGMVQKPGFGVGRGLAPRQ
Method: RNA Bind-n-Seq
Molecule type: RNA
Matrix: in vitro
Concentration: 1 µM
Setting: whole 134-nt RNA, ends assumed
With: 150 mM KCl
Reference: input library
Reading: higher = stronger binding
The log2 enrichment of `GGGAGUUCUACAGUCCGACGAUCCAAGUCCUGUGCUACACAUCGUAUGUACCGAAUCGGGUUUUGGUUUUGGGUUUUGGAAAGUAUUAUGUUACGCCGUUCGGAUCUGCACUUUGGAAUUCUCGGGUGUCAAGG` is reported as -0.302.
`GGGAGUUCUACAGUCCGACGAUCCCUCAAGUCCUGUGCUACACAUCGUAUGUACCGAAUCGGGGCGGGGCGGCGGGAAAGUAUUAUGUUACGCCGUUCGGAUCUGCACUUCCAUGGAAUUCUCGGGUGUCAAGG` has a log2 enrichment of -0.178.
With `GGGAGUUCUACAGUCCGACGAUCAGUCCUGUGCUACACAUCGUAUGUACCGAAUCGGGUGGGUUUUUUUGGGAAAAAGGGAAAGUAUUAUGUUACGCCGUUCGGAUCUGCACUUGGAAUUCUCGGGUGUCAAGG` the log2 enrichment was 0.621.
For `GGGAGUUCUACAGUCCGACGAUCGUCCUGUGCUACACAUCGUAUGUACCGAAUCGGGGAGGGGAAAAAAAGGGGUUUGGGGAAAGUAUUAUGUUACGCCGUUCGGAUCUGCACUGGAAUUCUCGGGUGUCAAGG`, the log2 enrichment was 1.01.

Sample 3
Target: CCND1, cyclin fold, Cln2 fusion (human)
Method: yeast growth competition, sequencing
Matrix: yeast
Setting: strong parent motif
Reference: not given
Reading: higher = stronger binding
Starting sequence: INSM1 docking peptide (human); PKAIRKLHFEDEV
`K6L`: “normalised enrichment score” 2.34.
Under “normalised enrichment score”, `R5M` is recorded as 1.82.
`K6I`: “normalised enrichment score” 3.41.
Under “normalised enrichment score”, `E12V` is recorded as 3.93.
`H8G`: “normalised enrichment score” 2.98.

Other studies, line by line
For `PhoQ, residues 284 288 289 292 302 303 HSYLQF`, the fold induction was 0.939 (PhoP, residues 12 14 15 18 19 NQAHL (Escherichia coli, UniProt P23836); Sort-seq, item: YFP reporter; E. coli; PhoQ-PhoP variant library, with: 10 µM Mg2+; reference: high Mg2+ state, higher = stronger signaling).
